Literature values that unrelated publications cite.
Compare with care: the assays were run in different laboratories. Numbers after ± are the reported error.

Structure (SMILES)	cell line	assay	conditions	IC50 [µM]
CC1=C(CO)C(=O)O[C@@H]([C@@H](C)[C@H]2CC[C@H]3[C@@H]4C[C@H]5O[C@]56[C@@H](O)C=CC(=O)[C@]6(C)[C@H]4[C@@H](O)C[C@]23C)C1	Hs-578T	cell growth	–	2.47
Cc1ccc(C2C3=C(COC3=O)NC3=C2C(=O)c2ccccc2C3=O)cc1 (centres unmarked)	KB cells	cell growth	–	> 2.5
O=C1C(=Cc2ccc(Br)cc2)CCCC12C1CCCN1C1(C(=O)Nc3ccccc31)C2c1ccc(Br)cc1 (centres unmarked)	breast cancer cell lines	cell growth	–	15.49 ± 0.04
CNC(=O)OCc1c(COC(=O)NC)c(-c2ccc(OC)cc2)n2c1Cc1ccccc1-2	H460	–	–	63.8
COc1ccc(-c2nnc(Nc3ccc(-c4ccccc4)s3)s2)cc1	B16-F10	–	–	< 10
O=C1NCC(Cc2ccccc2)N(CC2CCCN2CC(CC2CCCCC2)N2CC(Cc3ccc(O)cc3)N(CCc3ccccc3)C(=O)C2=O)C1=O (centres unmarked)	SK-MEL-28	viability	–	0.6 ± 0.4
CCC1=C(O)c2c(oc(-c3ccc4cc(OC)ccc4c3)cc2=O)C(CC)(CC)C1=O	HCT-8	cell growth, SRB	–	12
CC1=C(C)C(=O)OC(C(C)(O)C2CCC3C4CC5OC56C(O)C=CC(=O)C6(C)C4CC(O)C32C)C1 (centres unmarked)	K-562R	cell growth	–	1.54
COc1ccccc1NC(=O)N[C@H](C(=O)Nc1ccc(C(=O)NO)cc1)c1ccccc1	HCT-116	cell viability, MTT	–	4
CC(=O)OC1CC2C3C(OC(C)=O)C4OC45C(O)C=CC(=O)C5(C)C3CCC2(C)C1C(C)(O)C1CC(C)=C(C)C(=O)O1 (centres unmarked)	Lu1	cell growth	–	2.46
COc1cc(OC)cc(C2=C3C(C)=C(I)C(C)=[N+]3[B-](F)(F)n3c(C)c(I)c(C)c32)c1	HEp-2	phototoxicity	together with: light 1.5 J/cm^2	4
CCC1=C(O)c2c(oc(-c3cc4ccccc4s3)cc2=O)C(CC)(CC)C1=O	HCT-8	cell growth, SRB	–	19
CCNc1cc2c(cc1C)C1(c3cc(C)c(NCC)cc3O2)c2ccccc2C(=O)N1N=Cc1ccnc(-c2cc(C)ccn2)c1.Cc1c(C)c(-c2ccc(-c3ccccc3)cc2)[c-](C)c1C.F[P-](F)(F)(F)(F)F.[Cl-].[Ir+3]	HepG2 cancer cells	–	–	5.5 ± 0.7
N=C(NO)NN=Cc1ccc2ccccc2n1	L1210	–	–	6.8
O=C1OCC2=C1C(c1cccc([N+](=O)[O-])c1)C1=C(N2)C(=O)c2ccccc2C1=O (centres unmarked)	HEK293 cells	cell growth	–	1.47 ± 0.04
CC1=C2[O][Ru-]([Cl])[O+]=C2C=CN1CCCCCCCCCCCCN1C=CC2=[O+][Ru-]([Cl])[O]C2=C1C.Cc1ccc(C(C)C)cc1.Cc1ccc(C(C)C)cc1	SW480	MTT	–	0.29 ± 0.05
Oc1cccc(-c2cccc(O)n2)n1.[Cl-].[Cl-].[Ru+2].c1cnc2c(c1)ccc1cccnc12.c1cnc2c(c1)ccc1cccnc12	MCF-10A	cell viability	together with: blue light 450 nm, 1 h	13
CNc1nc2ccccc2n2c(CCc3ccccc3)cnc12	A-375	cell growth	–	1.57
CN(C)CCC[Se]c1cnc(-c2cccc(Cn3nc(-c4cccc(C#N)c4)ccc3=O)c2)nc1	MHCC97H	–	–	0.01
[Cl-].[Cl-].[Ru+2].c1ccc(-c2ccccn2)nc1.c1ccc(-c2ccccn2)nc1.c1cnc2c(c1)ccc1cccnc12	B16-F10	–	dark	> 100
